Measured values of several laboratories.
PIK3CD: Phosphatidylinositol 4,5-bisphosphate 3-kinase catalytic subunit delta isoform (PIK3CD, Homo sapiens, UniProt O00329)
Chain of UniProt O00329 (whole entry, looked up): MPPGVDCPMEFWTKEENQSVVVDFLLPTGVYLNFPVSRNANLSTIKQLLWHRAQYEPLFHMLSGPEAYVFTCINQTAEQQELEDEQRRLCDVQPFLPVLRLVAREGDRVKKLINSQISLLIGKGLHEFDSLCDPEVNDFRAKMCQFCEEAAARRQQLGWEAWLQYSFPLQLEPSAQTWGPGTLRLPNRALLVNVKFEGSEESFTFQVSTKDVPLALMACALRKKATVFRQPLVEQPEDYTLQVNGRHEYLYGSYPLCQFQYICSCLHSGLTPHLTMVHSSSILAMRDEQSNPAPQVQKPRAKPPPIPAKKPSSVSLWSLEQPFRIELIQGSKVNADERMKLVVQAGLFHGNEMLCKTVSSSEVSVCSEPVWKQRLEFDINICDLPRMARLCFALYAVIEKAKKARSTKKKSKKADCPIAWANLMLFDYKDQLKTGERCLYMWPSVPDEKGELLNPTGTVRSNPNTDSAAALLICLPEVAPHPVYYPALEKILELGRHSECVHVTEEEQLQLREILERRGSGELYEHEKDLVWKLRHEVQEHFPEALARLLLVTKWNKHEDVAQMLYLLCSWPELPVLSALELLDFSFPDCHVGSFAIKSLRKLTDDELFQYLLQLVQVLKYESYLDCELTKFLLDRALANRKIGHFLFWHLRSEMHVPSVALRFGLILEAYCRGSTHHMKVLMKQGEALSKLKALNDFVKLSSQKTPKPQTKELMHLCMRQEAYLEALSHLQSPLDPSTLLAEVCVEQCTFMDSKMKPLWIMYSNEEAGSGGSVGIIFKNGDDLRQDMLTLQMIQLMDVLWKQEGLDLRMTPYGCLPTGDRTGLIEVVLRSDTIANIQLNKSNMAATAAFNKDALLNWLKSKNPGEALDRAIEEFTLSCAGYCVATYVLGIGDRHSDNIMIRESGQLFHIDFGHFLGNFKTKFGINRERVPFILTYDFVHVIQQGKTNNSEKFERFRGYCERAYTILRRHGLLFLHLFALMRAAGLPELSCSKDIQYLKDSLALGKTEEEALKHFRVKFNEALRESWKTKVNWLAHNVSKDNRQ
TDP1: Tyrosyl-DNA phosphodiesterase 1 (TDP1, Homo sapiens, UniProt Q9NUW8)
Chain of UniProt Q9NUW8 (whole entry, looked up): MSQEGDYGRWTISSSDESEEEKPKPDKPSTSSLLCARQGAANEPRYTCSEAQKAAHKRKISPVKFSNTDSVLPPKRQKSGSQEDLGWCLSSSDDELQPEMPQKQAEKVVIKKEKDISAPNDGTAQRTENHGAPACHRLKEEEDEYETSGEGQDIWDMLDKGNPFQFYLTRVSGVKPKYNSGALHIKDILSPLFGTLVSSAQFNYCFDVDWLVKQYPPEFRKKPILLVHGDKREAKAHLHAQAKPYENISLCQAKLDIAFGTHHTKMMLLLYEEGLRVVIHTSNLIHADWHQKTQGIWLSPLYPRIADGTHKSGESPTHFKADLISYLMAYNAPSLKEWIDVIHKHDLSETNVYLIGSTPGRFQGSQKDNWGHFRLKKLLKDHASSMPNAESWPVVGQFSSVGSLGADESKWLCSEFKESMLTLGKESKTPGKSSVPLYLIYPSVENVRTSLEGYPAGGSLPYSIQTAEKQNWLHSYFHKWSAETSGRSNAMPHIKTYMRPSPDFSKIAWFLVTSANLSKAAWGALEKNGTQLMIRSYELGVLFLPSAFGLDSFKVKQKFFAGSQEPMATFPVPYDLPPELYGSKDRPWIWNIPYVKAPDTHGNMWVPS

For Cc1ccc(CN2C(=O)C3(c4ccccc42)C(c2ccc(F)cc2)NC2(C(=O)N(C(=O)CCc4ccccc4)c4ccccc42)N3Cc2ccc(F)cc2)cc1 (stereo not drawn), the IC50 was 127 nM (PIK3CD; enzyme activity, inhibitor, ADP detection).
With Cc1nc(N(C)c2ccc3c(c2)/C(=C/c2ccccc2C)C(=O)N3C)c2ccccc2n1 the IC50 was > 1000 nM (PIK3CD; enzyme activity, inhibitor, ADP detection).
With CC(=O)c1cnc(N)nc1N1CC[C@H]1c1nn2ccc(Cl)c2c(=O)n1-c1ccccc1 the IC50 was 47 nM (PIK3CD; kinase binding, KiNativ; human PBMC; intact cells, uncorrected for dilution).
The IC50 of CC(=O)N1c2ccc(-c3ccc(CNC(=O)c4cn5cc(-c6cnc(N)nc6)nc(N6CCOCC6)c5n4)cc3)cc2CC[C@@H]1C is reported as 45 nM (PIK3CD; kinase activity, inhibitor, Kinase-Glo).
O=C1/C(=N\c2ccc(Cl)cc2Br)c2ccccc2N1Cc1ccccc1 (mixture of isomers) has an IC50 of 517 nM (PIK3CD; enzyme activity, inhibitor, ADP detection).
Cc1nc(Nc2ccc3c(c2)/C(=C/c2c[nH]c4ccccc24)C(=O)N3)c2ccccc2n1 gave an IC50 of > 1000 nM (PIK3CD; enzyme activity, inhibitor, ADP detection).
With Cc1nn(-c2cccc(N)c2)c(=O)c2cnc(Nc3ccc(N4CCNCC4)cc3)nc12 the IC50 was > 10000 nM (Phosphatidylinositol 4,5-bisphosphate 3-kinase catalytic subunit delta isoform, with p85 alpha (PIK3CD, Homo sapiens, UniProt O00329); inhibitor; with PIK3R1 (p85α)).
For CCN(CC)CC(=O)Nc1cccc(-n2cc(-c3ccc4ccc(-c5cn(-c6cccc(NC(=O)CN(CC)CC)c6)nn5)cc4c3)nn2)c1, the IC50 was > 10000 nM (PIK3CD; enzyme activity, inhibitor).
The inhibition of O=C(O)c1ccc(Nc2c(-c3ccc(CON=Cc4cccc(N5CCOCC5)c4)cc3)nc3cc(-c4ccccc4)ccn23)cc1 is reported as 47.9% (TDP1; enzyme activity, inhibitor; 100 µM, unpurified compound).
O=C1/C(=N\c2ccc(Cl)cc2Br)c2ccccc2N1C(=O)c1ccccc1 gave an IC50 of 575 nM (PIK3CD; enzyme activity, inhibitor, ADP detection).
The IC50 of COc1ccccc1/C=C1\C(=O)N(C)c2ccc(N(C)c3nc(C)nc4ccccc34)cc21 is reported as 440 nM (PIK3CD; enzyme activity, inhibitor, ADP detection).
For N#Cc1cc(C=NOCc2ccc3nc(-c4ccccc4)c(Nc4ccc(C(=O)O)cc4)n3c2)ccc1F, the inhibition was 27.7% (TDP1; enzyme activity, inhibitor; 100 µM, unpurified compound).

Excerpt of the above:
With Cc1nn(-c2cccc(N)c2)c(=O)c2cnc(Nc3ccc(N4CCNCC4)cc3)nc12 the IC50 was > 10000 nM (Phosphatidylinositol 4,5-bisphosphate 3-kinase catalytic subunit delta isoform, with p85 alpha (PIK3CD, Homo sapiens, UniProt O00329); inhibitor; with PIK3R1 (p85α)).
